Assay results pooled from the literature.
Lines come from different studies, so protocols differ.
TDP1: Tyrosyl-DNA phosphodiesterase 1 (TDP1, Homo sapiens, UniProt Q9NUW8)
UniProt Q9NUW8, sequence (whole entry, looked up): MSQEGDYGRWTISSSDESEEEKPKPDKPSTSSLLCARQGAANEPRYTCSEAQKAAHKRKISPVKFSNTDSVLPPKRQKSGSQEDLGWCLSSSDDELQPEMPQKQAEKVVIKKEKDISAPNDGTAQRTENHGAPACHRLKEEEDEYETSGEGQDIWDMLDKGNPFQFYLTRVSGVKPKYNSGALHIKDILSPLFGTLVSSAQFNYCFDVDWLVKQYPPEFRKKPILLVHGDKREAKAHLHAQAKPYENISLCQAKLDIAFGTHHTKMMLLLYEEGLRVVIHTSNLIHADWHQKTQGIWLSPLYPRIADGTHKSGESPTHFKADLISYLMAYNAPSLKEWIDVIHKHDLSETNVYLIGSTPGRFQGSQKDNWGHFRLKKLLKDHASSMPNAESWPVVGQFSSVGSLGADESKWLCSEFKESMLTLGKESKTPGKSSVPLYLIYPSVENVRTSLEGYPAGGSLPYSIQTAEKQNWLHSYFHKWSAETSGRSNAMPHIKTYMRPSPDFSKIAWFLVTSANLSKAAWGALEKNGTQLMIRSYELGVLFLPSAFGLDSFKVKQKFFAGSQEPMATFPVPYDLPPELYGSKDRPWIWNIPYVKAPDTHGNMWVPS

| SMILES | target or system | test | system | setting | scale | measurement | value |
| --- | --- | --- | --- | --- | --- | --- | --- |
| Nc1ncc(-c2cc(-c3cnn(CC(F)(F)F)c3)ncc2F)nc1C(=O)NC1CNCC(F)C1 (stereo not shown) | TRKC | KINOMEscan competition binding |  | 1 µM | relative to: DMSO control | remaining binding | 100% |
| Cn1ncc2cc(-c3cncc(Cl)c3N3CCC4(CCNC4=O)CC3)ccc21 | LS174T | gene expression, microarray, measured: PTPRZ1 mRNA |  | concentration not given, 24 h | relative to: untreated cells | log2 fold change | 2.22 |
| COC1CN([C@H]2CC[C@H]([C@@]3(C)Oc4c(Cl)cc(C(=O)NCc5c(SC)cc(C)[nH]c5=O)c(C)c4O3)CC2)C1 |  | RNA-seq, measured: LAMA5 | human, whole blood | dose not given, 24 h | relative to: pretreatment baseline | log2 fold change | 1.3 |
| CNS(=O)(=O)Nc1nccc(Cc2c(C)c3ccc(Oc4ncccc4F)cc3oc2=O)c1F | PLC/PRF/5 | cell viability, CellTiter-Glo |  | 7 days |  | IC50 | > 1 µM |
| O=C(O)c1ccc(Nc2c(-c3ccccc3)nc3ccc(CON=Cc4ccc5c(c4)Cc4ccccc4-5)cn23)cc1 | TDP1 | enzyme activity, inhibitor |  | 100 µM, unpurified compound |  | inhibition | 82.5% |
| CN1CCCNC(=O)c2cccc(c2)C(=O)NCCCN(C)CCCNc2cccc3c2C(=O)c2cccc(c2C3=O)NCCC1 | SAS | RNA-Seq, measured: ARIH2 mRNA |  | 1 µM, 6 h | relative to: untreated cells | log2 fold change | -0.788 |
| C=CC(=O)Nc1cccc(Cn2ncc3cnc(Nc4cnn(CCOC)c4)nc32)c1 | human TIE2 | KINOMEscan |  | 100 nM | relative to: control | binding | 92% |
| C=CC(=O)N1[C@@H](c2ccc3c(c2)OCO3)c2[nH]c3ccccc3c2C[C@H]1C(=O)N1CCN(C)CC1 | human cyclin E1 N112C-3xFLAG:CDK2 | co-IP with TMT proteomics, measured: cyclin E1 |  | concentration not given | relative to: wild type DMSO | relative enrichment | 100% |
| O=C(O)c1ccc(Nc2c(-c3ccccc3)nc3ccc(CON=Cc4ccccc4)cn23)cc1 | TDP1 | enzyme activity, inhibitor |  | 100 µM, unpurified compound |  | inhibition | 0.1% |
| Cc1ncsc1-c1ccc(C(C)NC(=O)C2CC(O)CN2C(=O)C(NC(=O)CCCCCCCCCCN2CCCC(Nc3ncc(Cl)c(Nc4ccccc4S(=O)(=O)C(C)C)n3)C2)C(C)(C)C)cc1 (stereo not shown) | 22Rv1 | RNA-seq, measured: RHOV mRNA |  | concentration not given | relative to: DMSO | log2 fold change | -1.05 |

Excerpt of the above:
| SMILES | target or system | test | system | setting | scale | measurement | value |
| --- | --- | --- | --- | --- | --- | --- | --- |
| CNS(=O)(=O)Nc1nccc(Cc2c(C)c3ccc(Oc4ncccc4F)cc3oc2=O)c1F | PLC/PRF/5 | cell viability, CellTiter-Glo |  | 7 days |  | IC50 | > 1 µM |
